Measurements pooled from the literature.
Each line is one published result; not all experiments were run side by side. Numbers after ± are the reported error.

For `NC(=O)c1cccc(-c2cc(OC(=O)NC3CCCCC3)ccc2O)c1`, the Cmax was 12800 ng/mL (mouse, plasma; intravenous, 10 mg/kg).
`CN(C)C1(CNC(=O)c2ccc3c(c2)CCN3C(=O)c2ccccc2)CCOCC1` gave a Cmax of 152 ± 31 ng/mL (ICR mouse, male, plasma; intraperitoneal, 30 mg/kg).
For `CC(C)(C)N1CCC(NC(=O)c2ccc(C(F)(F)F)cc2Cl)CC1`, the Cmax was 3.12 µM (BALB/c mouse, plasma; intraperitoneal, 10 mg/kg).
For `Cc1ccccc1C(=O)NN=Cc1ccc(O)c(Br)c1`, the Cmax was 375 ng/mL (C3H/HeN mouse IN model, plasma; intraperitoneal, 1.6 mg/kg).
`Nc1ccc2cc3ccc(N)cc3nc2c1` has a Cmax of 14100 ng/mL (male CD-1 mouse, lung; oral, 100 mg/kg as hydrochloride).
For `O=C1c2c(O)c(=O)ccn2N([C@@H]2c3ccccc3SCc3c2ccc(F)c3F)[C@@H]2COCCN12`, the Cmax was 192 ng/mL (BALB/c mouse; subcutaneous, 4 mg/kg q12h).
`OB(O)CSc1nc2ccccc2n1Cc1ccc(C(F)(F)F)cc1C(F)(F)F` gave a Cmax of 8500 ng/mL (mouse, plasma; subcutaneous, 25 mg/kg).
`N#C[C@@]1(n2ccc(N)nc2=O)O[C@H](CO)[C@@H](O)[C@H]1O` gave a Cmax of 17500 ng/mL (CD-1 mouse, plasma; oral, 30 mg/kg, mean).
The Cmax of `Cc1ccc(F)c2cc(C(=O)N[C@@H]3CCC[C@H](N4CC[C@H](N(C)S(C)(=O)=O)C4)C3)[nH]c12` is reported as 3990 ng/mL (CD1 mouse; oral, 100 mg/kg).
`N#Cc1c(Oc2cccc(OS(=O)(=O)CCCC(F)(F)F)c2)cccc1C(F)(F)F` gave a Cmax of 360 ng/g (mouse, brain; oral, 5 mg/kg, 1 h post-dose).

Repeated from above:
For `Cc1ccccc1C(=O)NN=Cc1ccc(O)c(Br)c1`, the Cmax was 375 ng/mL (C3H/HeN mouse IN model, plasma; intraperitoneal, 1.6 mg/kg).
